Measured values collected from several papers.
Every numbered part comes from another study and shows a few of its results, in no order.

Block 1 — method: RNA Bind-n-Seq; form: RNA; matrix: in vitro; concentration: 365 nM; relative to: no-protein control; direction: higher = stronger binding
Target: RNA binding protein fox-1 homolog 2, RRM domain, GST-SBP tag (RBFOX2, Homo sapiens, UniProt O43251-10, residues 100-194)
Notes: natural RNA segment, single round, ends assumed
All sequences stand within: GGGAGUUCUACAGUCCGACGAUC … UGGAAUUCUCGGGUGCCAA
Target sequence (chain): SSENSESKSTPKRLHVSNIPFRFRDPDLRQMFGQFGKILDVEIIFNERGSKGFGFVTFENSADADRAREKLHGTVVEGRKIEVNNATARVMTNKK
Strand | RBNS enrichment (R)
UUUUAAUUUUUAACACCAUGGCACCUUUUGCACAUAACAUGCUUUAGAUUAUAUAUUCCGCACUCAAGGAGUAACCAGGUCGUCCAAGCAAAAACAAAUGGGAAAAUGUC | 1.19
CCCUGUCAUGCUCAUCAGCUUAUGGCUUCUGUCUAAGCACCUGAACAGAGGACUGAAACCUCCACUGCAGGCUGGUUUUAGGUCUUGAAUUAUGUAAGAAUCUUGCACAG | 0.416
UGAUUCUGUACUCUUAACCUUUGGCUACUUCACAGACUCCAUUGGCAACACUGUUAUUGAAAAUCAUGUAAGAUUAAAGAGAGGCAUUUUCGUUUCUAUACAACUUCAUU | 0.318
UUAGAAACGGAAAUGGAAUCCUGCUCACAAAAUCACUUUAAGAUCUUUUCGAAGCUGUUAAUUUUUCUUAGUGUUGUGGACACUGCAGACUUGUCCAGUGCUCCCACGGC | 0.59
GACUCAGGUGGGCCCUCUGAACUUGCCUUAAACACUCACCUUCUAGUCUUGGCCAGCCAACUCUGGGAAUACAGGGGUGAAAGGGGGGAACCAGUGAAAAUGAAAGGAAG | 0.386
CUUGAGAAGCUGUCACAAGGUCACUACAAGCCCAACCUGCCCCUUCACUUUGCCUUCCUGAGUUGGCCCCACUCCACUUGGGGGUCUGCAUUGGAUUGUUAGGGAUAGGC | 0.374
GCAAGUUUACCGUAACUUUUCUUAAACUUUUUAGUGCCGUUUCUAGUAUAUUCCUGUAAAUGUCAGUUACUGAAAAUGAGUCCAUUGUAAGUAGUUUAGCUUGUUUUUUG | 0.656
GGAGUGAGAUGUUUUUCUAUAUUUUAGAACUAUUUUUGGAUAAAUUAUAUAUUUUCCUUCCUGAUUGAAUCAUCAUCACUCCCUGUAACUAGCGAAAACCACCAGUCCAG | 0.375
UGGCCCAAGGGGUUAAGUGGGAACAAUCAUUAUACGGACUCUUCAGAUUUACAGAGAACUUACACUUCAUCUGUUCCACCUCUCCUGCGAUAGUCCUGGGUGCUCCACUG | 0.338
UCUUGUGGGACCCUGGGAUGUUUGGGGACUUUACUAUCUAGCACCCCAGUAGGCCUGUCCUGGCCAGAGAAGACUGGUAGGGGCCGAGUGGGGUUUGAAGGCAGCCGGCC | 0.64
GGAGCCCCCUCUGCCGGUCGGGCAGCCAGCAGAGGGGGAGUAGCCAAGCUGCUUGUCCUGGGCCUGCCCCUGUGUAUUCACCACCAAUAAAUCAGACCAUGAAACCAGUG | 0.322
UUUCUAAAAGAGCAUGUACAAAAGUGGCCUGUGGACAUUUAGGCCUGGGUGAUGCAUUUGCUCUUCCUGUUUGUGCCAAUGUAUCAAUGUAGAGUUGCUCUGUUUUCUUC | 1.3

Block 2 — method: universal PBM; form: double-stranded DNA, one strand shown; matrix: in vitro; concentration: not given; direction: higher = stronger binding
Target: Sal-like protein 4, full length isoform B (SALL4, Homo sapiens, UniProt Q9UJQ4-2, residues 1-616)
Notes: 8-mer, flanks averaged, mean of replicates
Strand | E-score
TGAGAGCA | -0.055
CTTAGAAA | 0.097
CACGAAAA | 0.157
AGTTCTTG | 0.122
AACGTCTA | 0.149
GCTGTCGA | -0.157
CGGTATTC | -0.0763
AAGGGGAC | -0.19
GAATCGTA | 0.124
GGCCGGAC | -0.339
AAGTACAG | 0.0656
CACTCTGC | -0.112
AGCAAGCC | -0.181
ACCTGGTA | -0.107
AGGTCCGC | -0.326
GCGATCTA | -0.0671
ACCTTCCC | -0.0555
GACAGCCA | -0.124
ATAACAAT | 0.366
CGGTATCC | -0.214

Block 3 — method: RNA Bind-n-Seq; form: RNA; matrix: in vitro; concentration: 100 nM; relative to: input RNA pool; direction: higher = stronger binding
Target: RING finger protein unkempt homolog, zinc fingers 1-6, SBP tag (UNK, Homo sapiens, UniProt Q9C0B0, residues 30-357)
Sequence of UniProt Q9C0B0 (30-357, looked up): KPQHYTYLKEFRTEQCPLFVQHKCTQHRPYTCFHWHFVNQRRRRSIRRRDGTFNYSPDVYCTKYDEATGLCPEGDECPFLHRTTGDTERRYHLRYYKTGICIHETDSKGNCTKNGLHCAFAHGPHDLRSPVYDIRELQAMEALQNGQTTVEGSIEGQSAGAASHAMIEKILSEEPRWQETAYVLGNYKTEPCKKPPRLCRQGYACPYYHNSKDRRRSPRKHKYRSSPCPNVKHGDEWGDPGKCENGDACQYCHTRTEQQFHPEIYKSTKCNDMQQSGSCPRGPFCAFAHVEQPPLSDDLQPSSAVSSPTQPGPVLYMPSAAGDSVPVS
Notes: RNA with constant flanks, vertebrate orthologous sites, ends assumed
All sequences stand within: GGGAGUUCUACAGUCCGACGAUC … CAACAGAGGAUUGAGCAUCA
Strand | bound/input enrichment
AAAUUAUAGCAGGAGAGCCAAGCAGUAGCAUUGGGGUUUUUUUGUAAAUGUAAAAGUGAUUAGAUUCAGACUUUGUUUCCUUAUUCAGUUUUAAAAAUAAAAAAAUACCUCAGUGCUGUU | 0.302 ratio
CAAUUCCAUGGUGGAGGGUUCCGAACUCAAAAAGGUCCGCUCCAACUCUCGAAUUUACCACAGGUAUUUUUUGCUGGACGCCGACAUGCAGAGCCUGAGGUGGGAACCAUCCAAGAAGGA | 0.225 ratio
UGAGUGAAUGAGAGUGAGUGUGUUGUGGUAAAAAAAAAACUUAAGAACCAUCAGGGAGAAAAGUUACAAAUACCAAGAGCCAGAUGGAUUAAAAGUGAAGAUGAAGAGGUCAUUGAAACU | 0.394 ratio
GUAAUGCAUUUUGCGACUUGGAUGUGGUCUGCACAGGAAGCUGCUGGCCCCGCCACAACACAUACAGUUUUUGUCUUUUUUUAAAAAGUUAAAACUGAAUUUAAUUUACUAAAAUUGUAA | 0.164 ratio
CAUUAACACACAAAAUGUCUCCAGGGGGGUAUUAGAUUUGAUUUCUUACAUACAAAACAAACAAAACAAACAAACCAUUUUUAAAGUAGAAGAGGGUUUUAGAUAGAAAAUGACAUAUUC | 1.9 ratio
GACCCCCACUCCCUGUGAGAGGGAAUGGGGGAAGCCUGAUGACCCUCAGCUGUUCCAAUCUAGUAUUUUUUUUCUUUUUUAAAAUUACUGUAUUUAUUAUGACGAUGGUGACUCCCCAGU | 1.58 ratio
CUCUCUUAGUGAUAGUAUUCCAUCUGUAGCAGAUUCACACUCGAGUCAUUUUUCUGAGUUUAGUUGCUCAGAUAUGGAAAGUAUGAAAACCUCCUGUAGCCAUGGUUCCAGUGACUAUCA | 0.577 ratio
ACGCUUUGAUAUUAAAUUUGACAUAAAAAGCAGCUGAUUGUAAGCACAACUCUUUCCUCCUAGCCAUUCAAAAAGGUAAAUGACAAAAAAGAAAACCUACUAGUCUUGAACAAACUGUCA | 0.453 ratio
GGGAUAUAUUGAAUAGUAUUAAACAUUUUCGUCUUCCUUUACCUUUUAUCCCUUAAUAUCUAGUCUACUUUUUUAAAUUUCAGACUUCAAUGCUCUUUGAAUUGAUAAUUCCAAUUUUCA | 0.872 ratio
UGUCUGCCUCAUUCUAAGAUUUACACAGUAGACCAUUUGUCAUCCAUGCUGUCCCACAAAUAGUUUUUUGUUUACGAUUUAUGACAGGUUUAUGUUACUUCUAUUUGAAUUUCUAUAUUU | 1.2 ratio
GUUCAUUUUGGUCUCCUCUUCCUCCAUCCCCUCUCCCGGACCCAUAUAAUUUUUUUUUAUGCAUAUUUAGUAACACUAGCUCUCCAAGUUUAAUUUAGGAAAAUGAUUCUCAAGAACAAA | 3.41 ratio

Block 4 — method: RNA Bind-n-Seq; form: RNA; matrix: in vitro; concentration: 200 nM; notes: whole 134-nt RNA, ends assumed; with: 150 mM LiCl; relative to: input library; direction: higher = stronger binding; all molecules: 7-deaza-guanosine replaces G
Target: Fragile X messenger ribonucleoprotein 1, C-terminal low-complexity region (Fmr1, Mus musculus, UniProt P35922)
All sequences stand within: GGGAGUUCUACAGUCCGACGAUC … UGGAAUUCUCGGGUGUCAAGG
Strand | log2 enrichment
CUCAAGUCCUGUGCUACACAUCGUAUGUACCGAAUCGGGAAGGGGAAGGAAGGGAAAGUAUUAUGUUACGCCGUUCGGAUCUGCACUUCC | -0.781
CAAGUCCUGUGCUACACAUCGUAUGUACCGAAUCGGUGGAAAAAAAGGUUUUUGGAAAGUAUUAUGUUACGCCGUUCGGAUCUGCACUUC | -2.01
CUCAAGUCCUGUGCUACACAUCGUAUGUACCGAAUCGGGAGGGUUUGGGUGGGAAAGUAUUAUGUUACGCCGUUCGGAUCUGCACUUCCA | -0.359
ACCAUGAAGGUGGGCAUCUUUGGGAAGUGGGGCAAGGGGGGGAUAGGGAGGGGGGUAACACUUUGGGAACAGGUGGUCCCAGGUCGUUUC | 1.38
GCAGGAAGUAAAAACAAAUGGAAAUGCUUCGGAUAGUGGCAGGGGUGGGGGUUGCUAAGGAAAGGGUGGGAUGGGAGUGGGUAAAGAAUU | 1.53
CAAGUCCUGUGCUACACAUCGUAUGUACCGAAUCGGGGAAAGGAAAGGGGAAAGGGAAAGUAUUAUGUUACGCCGUUCGGAUCUGCACUU | -0.969
CUGUGCUACACAUCGUAUGUACCGAAUCGGGGAAAAAAAGGGAAAAAAAGGAAAAAAAGGGGAAAGUAUUAUGUUACGCCGUUCGGAUCU | 0.531
CUGUGCUACACAUCGUAUGUACCGAAUCGGGGCCCCCCCGGGCCCCCCCGGCCCCCCCGGGAAAGUAUUAUGUUACGCCGUUCGGAUCUG | 0.319
UCCUGUGCUACACAUCGUAUGUACCGAAUCGGGAAAAAAAGGAAAAAAAGGAAAAAAAGGAAAGUAUUAUGUUACGCCGUUCGGAUCUGC | -0.342
AGUCCUGUGCUACACAUCGUAUGUACCGAAUCGGGAGGGAAAAAGGGUUUUUUUGGGAAAGUAUUAUGUUACGCCGUUCGGAUCUGCACU | -1.8
CACAGACAACACGCACCCACACAGACACCGAGGGAAGGGGUUGGGAUGGGGACAGGGUGCACAGCAGGGCGGGGUAGGACCCCAGCCCCU | 0.857

A few entries again (block 2):
Strand | E-score
CACTCTGC | -0.112
AGCAAGCC | -0.181
ACCTGGTA | -0.107
AGGTCCGC | -0.326
GCGATCTA | -0.0671
ACCTTCCC | -0.0555
